Experimental data pooled from the literature.
Lines come from different studies, so protocols differ.
Organism: Escherichia coli

NC(=O)Nc1nc2cc(Br)ccc2[nH]c1=O  MIC (microbial growth, broth dilution; DC2; 20 h): > 128 µg/mL
C[C@@H](N)[C@H](O)CCCCCCCC(=O)CCCCCCCCCCCCCC[C@@H](O[C@@H]1O[C@H](CO)[C@@H](O)[C@H](O)[C@H]1O)[C@@H](N)CO  MIC (microbial growth, resazurin; ATCC10536; 6 h): 14.6 µM
CCCCCCCCCCCCCCCCCCSCC1OC(OC2C(N)CC(N)C(OC3OC(CN)C(O)CC3N)C2O)C(O)C(N)C1O (centres unmarked)  MIC (BL21(DE3) Eis-expressing): > 150 µg/mL
CCCCCCCCCCCC(=O)N[C@@H](CCCCN)C(=O)N[C@@H](CCCCN)C(=O)N[C@@H](CCCCN)C(=O)N[C@@H](CCCCN)C(=O)N[C@@H](CCCCN)C(N)=O  MIC (broth microdilution; K12; 16-24 h, 37 °C, prepared at pH 7): ≥ 32 µg/mL
CCCCCCCCCCCCCC(=O)N[C@H](CCN)C(=O)N[C@@H]1C(=O)N[C@@H](CCN)C(=O)N[C@@H](CC(C)C)C(=O)N[C@@H](CCN)C(=O)N[C@H](Cc2ccccc2)C(=O)N[C@@H](CC(C)C)C(=O)N[C@@H](CCN)C(=O)N[C@H](CCN)C(=O)N[C@@H](C(C)C)C(=O)N[C@@H](CC(=O)O)C(=O)O[C@@H]1C  MIC (broth microdilution; MG1655-mcr-1, colistin-resistant): 2 µg/mL
CC[C@H](C)[C@H](NC(=O)[C@H](CCN)NC(=O)CCCCCCCCCCCNC(=O)CCCCCO)C(=O)N[C@@H](CCN)C(=O)N[C@H](Cc1ccccc1)C(=O)N[C@@H](CC(C)C)C(=O)N[C@@H](CCN)C(=O)N[C@@H](C(=O)N[C@@H](CC(C)C)C(=O)N[C@@H](CO)C(N)=O)C(C)C  MIC (24 h, 37 °C): 12.5 µM
CC[C@H](C)[C@H](NC(=O)[C@H](CCCNC(=N)N)NC(=O)[C@@H]1CCCN1C(=O)[C@@H](NC(=O)[C@H](CCCNC(=N)N)NC(=O)[C@H](Cc1ccccc1)NC(=O)[C@H](CC(=O)O)NC(=O)[C@@H]1CCCN1C(=O)[C@@H]1CCCN1C(=O)[C@H](CO)NC(=O)[C@H](Cc1c[nH]c2ccccc12)NC(=O)[C@@H]1CCCN1C(=O)[C@@H]1CCCN1C(=O)[C@H](CC(C)C)NC(=O)[C@H](Cc1c[nH]c2ccccc12)NC(=O)[C@@H]1CCCN1C(=O)CNC(=O)[C@@H]1CCCN1C(=O)[C@H](Cc1c[nH]c2ccccc12)NC(=O)[C@H](CC(N)=O)NC(=O)[C@@H]1CCCN1C(=O)[C@@H]1CCCN1C(=O)[C@H](Cc1c[nH]c2ccccc12)NC(=O)[C@H](Cc1ccccc1)NC(=O)[C@@H]1CCCN1C(=O)[C@@H](NC(=O)[C@H](CCCNC(=N)N)NC(=O)[C@@H](N)CCCNC(=N)N)[C@@H](C)CC)[C@@H](C)CC)C(=O)N[C@@H](CC(C)C)C(=O)N[C@@H](CCCNC(=N)N)C(=O)N[C@@H](CCCCN)C(=O)N[C@@H](CCCNC(=N)N)C(=O)O  MIC (broth microdilution; BW25113 wild type, Mueller-Hinton broth; overnight, 37 °C): 7 µM
NC[C@H]1OB(O)c2c(OCCO)cccc21  MIC (LeuRS D342E, G333D, D345N or V335D): > 250 µM
CC(C)Oc1ccc(B(O)O)c(F)n1  MIC (bacterial growth; TEM-3 ESBL clinical isolate; cefotaxime alone): 4 µg/mL
N=C(N)NCCC[C@H](NC(=O)[C@H](Cc1c[nH]c2ccccc12)NC(=O)[C@H](CCC(N)=O)NC(=O)[C@H](Cc1c[nH]c2ccccc12)NC(=O)[C@H](CCCNC(=N)N)NC(=O)[C@H](Cc1c[nH]c2ccccc12)NC(=O)[C@H](CCC(N)=O)NC(=O)[C@H](Cc1c[nH]c2ccccc12)NC(=O)[C@@H](N)CCCNC(=N)N)C(=O)NCCCC[C@H](NC(=O)[C@H](CCCNC(=N)N)NC(=O)[C@H](Cc1c[nH]c2ccccc12)NC(=O)[C@H](CCC(N)=O)NC(=O)[C@H](Cc1c[nH]c2ccccc12)NC(=O)[C@H](CCCNC(=N)N)NC(=O)[C@H](Cc1c[nH]c2ccccc12)NC(=O)[C@H](CCC(N)=O)NC(=O)[C@H](Cc1c[nH]c2ccccc12)NC(=O)[C@@H](N)CCCNC(=N)N)C(=O)NCCCCCC(N)=O  MIC (broth microdilution; ATCC 11775; 24 h, 37 °C): 31 µM
CC[C@H](C)[C@H](NC(=O)[C@H](CCCCN)NC(=O)[C@H](CC(C)C)NC(=O)[C@H](C)NC(=O)[C@H](CC(C)C)NC(=O)[C@H](CO)NC(=O)[C@H](C)NC(=O)[C@H](CC(C)C)NC(=O)[C@H](Cc1ccccc1)NC(=O)[C@@H]1CCCN1C(=O)[C@H](CC(C)C)NC(=O)[C@@H](N)Cc1ccccc1)C(=O)N[C@@H](CC(C)C)C(N)=O  MIC (BAA 2340; 10% human serum): > 128 µM
CCCCCCCCCCCCCCCCN(C)[C@H](CO)C(=O)N[C@H](C)C(=O)NCC(=O)N(C)[C@@H]1C(=O)N[C@@H](C)C(=O)N[C@H](C(=O)O)Cc2ccc(O)c(c2)-c2cc1ccc2O  MIC (broth microdilution; MG1655 wild type; 24 h, 37 °C, inactive): inactive
Cc1cccc(-c2nc(Nc3ccncn3)c3sccc3n2)n1  MIC (broth microdilution; 3): > 64 µM
CN[C@H](CC(C)C)C(=O)N[C@H]1C(=O)N[C@@H](CC(N)=O)C(=O)N[C@H]2C(=O)N[C@H]3C(=O)N[C@H](C(=O)N[C@H](C(=O)NCc4cn(CCOCCOCCOCCC(=O)N[C@H](C(=O)N[C@@H](CCN)C(=O)N[C@H]5CCNC(=O)[C@H]([C@@H](C)O)NC(=O)[C@H](CCN)NC(=O)[C@H](CCN)NC(=O)[C@H](CC(C)C)NC(=O)[C@@H](CC(C)C)NC(=O)[C@H](CCN)NC5=O)[C@@H](C)O)nn4)c4cc(O)cc(O)c4-c4cc3ccc4O)[C@H](O)c3ccc(c(Cl)c3)Oc3cc2cc(c3O[C@@H]2O[C@H](CO)[C@@H](O)[C@H](O)[C@H]2O[C@H]2C[C@](C)(N)[C@H](O)[C@H](C)O2)Oc2ccc(cc2Cl)[C@H]1O  MIC (broth microdilution; ATCC 25922; 18 to 20 h, 37 °C, 0.002% polysorbate 80): 32 µg/mL
CCO[C@H]1[C@H](O)[C@@H](N)[C@@H](O[C@H]2[C@H](O[C@@H]3O[C@H](CO)[C@@H](O[C@H]4O[C@@H](CN)[C@@H](O)[C@H](O)[C@H]4N)[C@H]3O)[C@@H](O)[C@H](N)C[C@@H]2N)O[C@@H]1CO  MIC (broth microdilution; clinical isolate AG 055): 32 µg/mL
CC[C@@H](C)[C@@H](NC(=O)[C@@H](CCCCN)NC(=O)[C@H]1CCCN1C(=O)[C@H](NC(=O)[C@@H](CC(C)C)NC(=O)[C@@H](CCCCN)NC(=O)[C@@H](CC(C)C)NC(=O)[C@H](NC(=O)[C@@H](CO)NC(=O)CNC(=O)[C@@H](Cc1ccccc1)NC(=O)[C@H](N)Cc1ccccc1)C(C)C)[C@H](C)CC)C(=O)N[C@H](CC(C)C)C(N)=O  MIC (broth microdilution; K12): 25 µM
COc1c(NC(=O)c2ccc(NC(=O)c3ccc(NC(=O)[C@H](CC#N)NC(=O)c4ccc(NC(=O)/C(C)=C/c5ccc(O)cc5)cc4)cc3)c(OC)c2O)ccc(C(=O)O)c1O  MIC (WT-3): 0.06 µg/mL
CCCCCCCCCCCCCCCCC(=O)N[C@@H](CCCCN)C(=O)N[C@@H](CCCCN)C(=O)N(CCCCN)CC(=O)N[C@@H](CCCCN)C(=O)N[C@@H](CCCCN)C(N)=O  MIC (broth microdilution; K12, water pH 7; 18 h, 37 °C): 8 µg/mL
Cc1ccc(SCC2OC(OC3C(N)CC(N)C(OC4OC(CN)C(O)CC4N)C3O)C(O)C(N)C2O)cc1 (centres unmarked)  MIC (BL21(DE3) pET22b): 37.5 µg/mL
Cc1cc(N)c2cc(NC(=O)c3ccc4c(-c5cccc(O)c5)cccc4c3)ccc2n1  MIC (hyperporinated ΔtolC): > 200 µM
CC1C(=NOCc2cc(-c3ccc(Cl)cc3)no2)C(C)C(c2ccc(Cl)cc2)OC1c1ccc(Cl)cc1 (centres unmarked)  MIC (microbial growth, broth dilution; MTCC443; 24 h): 25 µg/mL
CC[C@H](C)[C@H](NC(=O)[C@H](NC(=O)[C@@H](CCCNC(=N)N)NC(=O)[C@@H](N)COC(=O)[C@@H](NC(=O)[C@@H](Cc1ccccc1)NC)[C@@H](C)CC)[C@@H](C)CC)C(=O)N[C@@H](CO)C(=O)N[C@H]1C(=O)N[C@@H](C)C(=O)N[C@@H](C2CCCCC2)C(=O)N[C@@H]([C@@H](C)CC)C(=O)O[C@H]1C  MIC (broth microdilution; ATCC 10798, Mueller-Hinton broth; 16 h, 37 °C): > 8 µg/mL
CC[C@H](C)[C@H](NC(=O)[C@H](C)NC(=O)[C@H](C)NC(=O)[C@H](Cc1ccccc1)NC(=O)[C@H](C)NC(=O)CNC(=O)[C@H](Cc1ccccc1)NC(=O)[C@@H](N)Cc1ccccc1)C(=O)N[C@@H](C)C(=O)N[C@@H](CO)C(=O)N[C@@H](CC(C)C)C(=O)N[C@H](C(=O)N[C@H](C(=O)N1CCC[C@H]1C(=O)N[C@@H](CCCCN)C(=O)N[C@@H](CC(C)C)C(=O)N[C@H](C(=O)N[C@@H](CCC(=O)O)C(=O)N[C@@H](CCCCN)C(=O)N[C@H](C(=O)N[C@@H](CCCCN)C(=O)N[C@@H](CCC(N)=O)C(=O)N[C@@H](C)C(=O)N[C@@H](CCCNC(=N)N)C(N)=O)[C@@H](C)CC)[C@@H](C)CC)[C@@H](C)CC)C(C)C  MIC (broth microdilution; ATCC 35218): > 50 µM
CCn1cc(C(=O)NCCCCCC(=O)N[C@@H](CCCNC(=N)N)C(=O)N[C@@H](CC(C)C)C(=O)N[C@@H](CC(C)C)C(=O)N[C@@H](CCCNC(=N)N)C(=O)N[C@@H](CCCNC(=N)N)C(=O)N[C@@H](CC(C)C)C(=O)N[C@@H](CC(C)C)C(=O)N[C@@H](CCCNC(=N)N)C(N)=O)c(=O)c2cc3c(cc21)OCO3  MIC (broth microdilution; ATCC 25922; 24 h, 37 °C): 34 µM
CC[C@H](C)[C@H](N)C(=O)N[C@@H](CC(C)C)C(=O)N[C@@H](CO)C(=O)N[C@@H](C)C(=O)N[C@@H](C)C(=O)N[C@@H](Cc1ccc(O)cc1)C(=O)N[C@@H](CO)C(=O)NCC(=O)N[C@H](C(=O)N[C@H](C(=O)N[C@@H](CO)C(=O)N[C@@H](CC(C)C)C(=O)N[C@H](C(=O)NCCCCCC(=O)N[C@@H](Cc1c[nH]c2ccccc12)C(N)=O)[C@@H](C)CC)[C@@H](C)CC)[C@@H](C)CC  MIC (clinical pb3): 5 to 10 µM
CCCCCCCCC/C=C\CCCc1cc(=O)c2ccccc2n1C  MIC (broth microdilution; Luria-Bertani broth): > 1000 µg/mL

For quick reference, copied from above:
CC1C(=NOCc2cc(-c3ccc(Cl)cc3)no2)C(C)C(c2ccc(Cl)cc2)OC1c1ccc(Cl)cc1 (centres unmarked)  MIC (microbial growth, broth dilution; MTCC443; 24 h): 25 µg/mL
CC[C@H](C)[C@H](NC(=O)[C@H](NC(=O)[C@@H](CCCNC(=N)N)NC(=O)[C@@H](N)COC(=O)[C@@H](NC(=O)[C@@H](Cc1ccccc1)NC)[C@@H](C)CC)[C@@H](C)CC)C(=O)N[C@@H](CO)C(=O)N[C@H]1C(=O)N[C@@H](C)C(=O)N[C@@H](C2CCCCC2)C(=O)N[C@@H]([C@@H](C)CC)C(=O)O[C@H]1C  MIC (broth microdilution; ATCC 10798, Mueller-Hinton broth; 16 h, 37 °C): > 8 µg/mL
